Experimental data from different studies.
Each numbered part is a random draw from the data of one study; scales do not carry over between parts.

Set 1 — method: RNA Bind-n-Seq; form: RNA; medium: in vitro; tested at: 200 nM; setting: whole 134-nt RNA, ends assumed; together with: 150 mM KCl; relative to: input library; reading: higher = stronger binding
Target: Fragile X messenger ribonucleoprotein 1, C-terminal low-complexity region (Fmr1, Mus musculus, UniProt P35922)
All sequences stand within: GGGAGUUCUACAGUCCGACGAUC … UGGAAUUCUCGGGUGUCAAGG
With `AAUGCCCACAAGGUCCCUCCCCCAUGGCUGAUUGCCAUGCAGCGAUAUGGACCACCCCCAUCGUAUCCCAACCUGAAAAUCCCUGGGCUG` the log2 enrichment was 0.0146.
`AGUCCUGUGCUACACAUCGUAUGUACCGAAUCGGGGAAAAGGGGAAAAGGGAAAAGGAAAGUAUUAUGUUACGCCGUUCGGAUCUGCACU` has a log2 enrichment of -0.0919.
`UCCUGUGCUACACAUCGUAUGUACCGAAUCGGGCCCCCCGGCCCCCCGGGCCCCCCGGGGAAAGUAUUAUGUUACGCCGUUCGGAUCUGC` gave a log2 enrichment of -0.0764.
The log2 enrichment of `GGGGAGGUGGAUUUUGUUUAUUUUUUUAGCUCAUUUCCAGGGGUGGGAAUUUUUUUUUAAUAUGUGUCAUGAAUAAAGUUGUUUUUGAAA` is reported as 0.502.
With `ACCAUGCAGGUGGACAUCUUUGGGAAGUGGGGCAAGGGGGGGAUAGGGAGGGGGGUAACACUUUGGGAACAGGUGGUCCCAGGUCGUUUC` the log2 enrichment was 0.977.
With `CCUGUGCUACACAUCGUAUGUACCGAAUCGGGGAAAAAGGGGUUUUUUUGGGGUUUGGGGAAAGUAUUAUGUUACGCCGUUCGGAUCUGC` the log2 enrichment was 0.463.

Set 2 — method: protein binding microarray; form: double-stranded DNA, one strand shown; medium: in vitro; tested at: not given; relative to: not given; reading: higher = stronger binding
Target: Histone acetyltransferase KAT6A, both winged helices, GST fusion (KAT6A, Homo sapiens, UniProt Q92794, residues 1-181)
Setting: 8-mer, flanks averaged, mean of 2 arrays, mostly near background
Residues (chain): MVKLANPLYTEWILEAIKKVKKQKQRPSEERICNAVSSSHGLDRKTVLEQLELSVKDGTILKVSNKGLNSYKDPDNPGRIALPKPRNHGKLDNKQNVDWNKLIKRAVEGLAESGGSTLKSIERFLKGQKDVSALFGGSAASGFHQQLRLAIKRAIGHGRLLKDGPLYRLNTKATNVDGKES
With `ATGTTCAG` the E-score was -0.165.
`GGGTATTA` has an E-score of 0.0299.
`ACATCCAC` has an E-score of -0.171.
The E-score of `TCAATGCA` is reported as 0.00713.
The E-score of `CCGCCCAG` is reported as 0.0665.
`GTTAGCCA` gave an E-score of -0.0703.
`GGTCGCTA` gave an E-score of 0.12.

Set 3 — method: protein-binding microarray; form: double-stranded DNA, one strand shown; medium: in vitro; tested at: 250 nM; setting: 60-bp whole probe; together with: salmon DNA 0.4 mg/ml; relative to: random background probes; reading: higher = stronger binding; all sequences stand within: GCCTAGCAC … GTCTTGATTCGCTTGACGCTGCTG
Target: Interferon regulatory factor 5, full length, phosphomimetic (IRF5, Homo sapiens, UniProt Q13568-2, residues 1-514, K96S/S451D/S453D/S456D/S462D)
`GACGAATTGGGGACTGGAGACGTGCTA` has a log fluorescence of -0.568 z-score.
The log fluorescence of `TCCATTTTCAGAATTTACTTGTGCTAG` is reported as 1.86 z-score.
For `TTAGGACTGAACTTTCGGTTAGTGCTA`, the log fluorescence was 9.41 z-score.
For `GACGATCTCAGTATGGAGACGTGCTAG`, the log fluorescence was -0.14 z-score.
The log fluorescence of `GACGGTATCGGGACTGGGAACGTGCTA` is reported as 1.36 z-score.
With `GTAGGTTTCCTTTTCCTTTAGTGCTAG` the log fluorescence was 1.59 z-score.
For `TTAGGTATCCAACTGCTTTAGTGCTAG`, the log fluorescence was 0.0961 z-score.

Single results of other studies
For `PhoQ, residues 284 288 289 292 302 303 TNASYF`, the fold induction was 1.2 (PhoP, residues 12 14 15 18 19 NHFRA (Escherichia coli, UniProt P23836); Sort-seq, measured: YFP reporter; E. coli; PhoQ-PhoP variant library, together with: 10 µM Mg2+; relative to: high Mg2+ state, higher = stronger signaling).
